# Results gathered from unrelated publications.
# Numbered parts are unrelated; each lists some results of a single study.

# Study 1
# Target: RNA binding protein fox-1 homolog 2, RRM domain, GST-SBP tag (RBFOX2, Homo sapiens, UniProt O43251-10, residues 100-194)
# Technique: RNA Bind-n-Seq
# Form: RNA
# Sample: in vitro
# Concentration: 365 nM
# Setting: natural RNA segment, single round, ends assumed
# Baseline: no-protein control
# Direction: higher = stronger binding
# Target sequence (chain): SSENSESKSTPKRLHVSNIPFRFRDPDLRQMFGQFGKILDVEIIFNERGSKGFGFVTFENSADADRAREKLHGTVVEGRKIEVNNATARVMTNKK
Sequence,RBNS enrichment (R)
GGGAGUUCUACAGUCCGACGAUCCCAGGUGUAGGGCAUGUUCAUGAAUAUCAAAUCUUUUGAUGCUGGACCCAAGAGAGGAAAAGUUGUAGCUAAAUGUUGAUUUACUUAUAACUAGACGUCUAUGUGAGAAAUGGAAUUCUCGGGUGCCAA,0.585
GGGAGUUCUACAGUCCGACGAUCAUUCUGGUGUUUGUAACACCAAAGUGGAAAAUACAGCCCAUGGCAUGGGUGCUGUGAAGUUGAGAUGAGAAAAUGAUAUGACCUUGCUGUGGGUCUCUGGAUCCUGACCAUGGAAUUCUCGGGUGCCAA,1.06
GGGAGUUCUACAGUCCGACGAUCCUGGCUGGGCUGGCUGAAGAAUGAAGACCACUGGACUCUCCGUUAAUCUCUAAGGGGUCUGCUCCCCAGGAACGUUUCUGAACAAUGGGGACUUUGUUGGUAGCCAUUUGUGGAAUUCUCGGGUGCCAA,1.1
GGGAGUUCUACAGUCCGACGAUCGCCAAAAUGAGCCUCGGUGUCAGAGGAUACAACAAAAACAGCAAUUUUGAUGCCUUUGAAAUGAUGAAGGGAUUCUACCUGUAUUUUUACUCUUAGAACAGAUACAACUUUGGAAUUCUCGGGUGCCAA,0.442
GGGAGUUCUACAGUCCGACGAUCAGGCUCAUUCUGAGUUGAUGAAAAGUCUUGUUUGGACUUCUGCAGGGUUUGACUCCCUGGACACUCUGAGUGGGGUGGUCAUCCAGGCAGUACUAUUAAUGACCUCCCCAUGGAAUUCUCGGGUGCCAA,0.293
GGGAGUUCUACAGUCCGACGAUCAGUUUGACCUGUUUAGUGUAUUCUGGGCCGAGUCUCUGAAGCAGGAGCAGAGCACACUCCCGGGAUUCAGGGACAUGGUCCUCACAGCUCGGAAGUAGCUCUAGUCCUGCUGGAAUUCUCGGGUGCCAA,0.236
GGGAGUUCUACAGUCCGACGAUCCUCCAUUUAGCUGGCCAAUCAGCCCAGGAGGGGCAGGUUCCCCGGGGCCGGCGCUAGGAUUUGCACUAAUGUUCCUCUCCCCGCGGGUGGGGGCGGGGAAAUUCAUAUCCUGGAAUUCUCGGGUGCCAA,0.878
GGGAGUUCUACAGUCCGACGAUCGUUGGGGCGGGUGAGCCAAAGCGGCCCCCCAUGGUGUCUACCUGAGGGGCAGGGAACCGCCUGCCUGUGCACUCACGCCACCCCCCAGCCCACAAAGAGCCCAUCUGAGAUGGAAUUCUCGGGUGCCAA,0.294
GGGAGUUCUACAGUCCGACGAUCCGGGCCUGCUGUGCUGCUUUUGUGCCAAGGUUAGCCAGUCCCCCCUGUUGUGUUCCAUGUGCUUUCACCUCUGCCUCAUCUUUCCUCCCGUCCCUGCCCCGCCACCUCCCUGGAAUUCUCGGGUGCCAA,0.527
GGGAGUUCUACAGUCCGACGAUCUGAGUUAUAUGUGGUAGAUUAUAUUGACUCCAACCAUCAGCCUUUCUGAUGAGCCUGUAGAGAAGCCUAGAGAGCCCCGGGCCAUCUGAUGAUGUCACCAGUGCUGCCUCUGGAAUUCUCGGGUGCCAA,0.304
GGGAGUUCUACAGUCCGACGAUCGUGCCUGGUGCAUUCCGAGGCUACAUCCAGGCUCAUGGAAGGAGUGUAGUAUUCAUUUAGCCAUGUCUGCCAUGGGUCCAGAAAUGGGAAAGGGAAUUGCUGUCCUUGCCUGGAAUUCUCGGGUGCCAA,0.936
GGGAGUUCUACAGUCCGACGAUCCAGGCCAGGCUGAGGGUGGGGCCCUCUGGGACCUAGUCCUCUAAGCUGUCUUUGUUAGAUACUGCUGAGUGAAAGGUGGACCGAGAAGGCUCUUGUGAAGCUCCAGGUAGUGGAAUUCUCGGGUGCCAA,0.297

# Study 2
# Target: RING finger protein unkempt homolog, zinc fingers 1-6, SBP tag (UNK, Homo sapiens, UniProt Q9C0B0, residues 30-357)
# Chain of UniProt Q9C0B0 (30-357, looked up): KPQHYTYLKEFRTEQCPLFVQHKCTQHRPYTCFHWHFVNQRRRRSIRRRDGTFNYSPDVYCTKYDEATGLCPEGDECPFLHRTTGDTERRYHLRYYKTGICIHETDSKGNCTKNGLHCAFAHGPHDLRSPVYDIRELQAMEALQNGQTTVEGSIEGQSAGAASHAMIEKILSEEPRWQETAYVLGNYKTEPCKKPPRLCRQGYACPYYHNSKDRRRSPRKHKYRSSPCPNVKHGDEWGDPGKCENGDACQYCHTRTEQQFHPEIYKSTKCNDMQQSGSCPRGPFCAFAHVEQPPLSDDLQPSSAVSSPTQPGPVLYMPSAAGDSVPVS
# Technique: RNA Bind-n-Seq
# Form: RNA
# Sample: in vitro
# Concentration: 100 nM
# Setting: RNA with constant flanks, vertebrate orthologous sites, ends assumed
# Baseline: input RNA pool
# Direction: higher = stronger binding
Sequence,bound/input enrichment
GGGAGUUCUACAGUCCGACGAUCUAUAAGAACUCUUGCAGUCUUAGAUGUUAUAAAAAUAUAUAUCUGAAUUGUAAGAGUUGUUAGCACAGUUUUUUUUUAAGCUCUUGUUUUGGGUACAAGGCAUUUCUGAAAUUUUGUAAACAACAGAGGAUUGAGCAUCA,0.247 ratio
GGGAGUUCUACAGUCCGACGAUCUCAUAUUGUGUGUAGAGAAAAAUCUUCAUUGACCCAUUGUGAAAUUCCCUAGUAAUUAUUUGGAAUCUUAAUUUUUCUAAUUCAAGUUCAUUGUAUUAGUCAUUUUUAGCCCAUAAUUAACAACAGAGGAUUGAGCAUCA,0.171 ratio
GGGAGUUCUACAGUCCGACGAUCACACUUAUAUUGUGGCAUAUAGUCAACAUGGAAGUAGACCAGCUCUGCUGAUUUGAAAUUUAGAUUUUUUUAAUUAUGUACUGGGGACAGGUUUUUGUCGCUUUACAUUGCUUCCUAGUUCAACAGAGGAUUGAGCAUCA,4.3 ratio
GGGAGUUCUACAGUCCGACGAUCAUAGAAUUAUAGAAGAAACAUUUUUCGUCUUCCUUUAUCUUUUAAUCCCUACCUAAUACCUAGUCUACUUUUAAAAAUUUCAAACUUCACUGCUCUUUGAAUUGAUAAUUCCAAUUUUCACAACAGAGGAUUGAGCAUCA,3.38 ratio
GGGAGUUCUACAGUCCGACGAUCAAAUAUUUUAUCAUUUGAUUAAAAUUAGAUAAGAAAUUACUGUUCAUUUUUCCUUUGCAACAAGCUUAUCCUAUUUUUUAAUCUAUUUUGCAAAAUAUCGGUUGUGUAUGGUUGCUUGACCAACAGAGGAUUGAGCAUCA,0.491 ratio
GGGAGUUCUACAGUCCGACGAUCCAUCUCUCAUUUUAUAUGUCCAAAAAUGGCUUUGAAUUUUAAGCAAUUACUAGUUUUAAUUAGCUCUGCCCUCAUGAAGUAUUAUUAUAAUUCACCAUAAACAGCUAUCUGUCUGAAUUACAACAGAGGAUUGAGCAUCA,1.17 ratio
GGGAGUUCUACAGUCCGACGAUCGCAAUGAAAAAGCAGCCCUUCUCCCAGUCCCCUUUUCACUAGGAGAUACAAACAGUACCAUAGAAGAGCAAUUAAAUUCAAUAAAUUUAUCUUUUCAGGAUGAUCCAGACUCCAGUACCACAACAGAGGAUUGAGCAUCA,1.01 ratio
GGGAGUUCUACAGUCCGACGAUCUUCAGGCACAACUGACUGGUUCACAACAUUCCCUACAUAGUUAUCUAGCAAAUACAAGUGUGGUUAAUUUUCAGGAAACAACCAGGCAGUCAUCUUUACCAUGUAGCCCAGUUGGAGAUUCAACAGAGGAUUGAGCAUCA,0.836 ratio
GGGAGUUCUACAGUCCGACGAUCUAAAGUAGACUUUAUUUUAGGGAUGGAGCCGGGGAGUGGUGUGGAUGGGAGGCUGGUAUCAACAUCACUAAGUAUUCCGAAGGUCUUCUUGCUUUGUUUUUCCAUUUUAAUUGAUACACUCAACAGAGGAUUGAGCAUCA,1.28 ratio
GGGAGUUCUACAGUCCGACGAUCAUUUAAAAUGUGUUUACUUAUAUUUAAUGAUCUCAUUCCUGAGUUCCUGUUUCAUUGAAGUAGCUUCCAUUUCUAUUAUUGUAGUUAUGAAUAAAUAGAAGGUUUGUGCCAGUAGACAUUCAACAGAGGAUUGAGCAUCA,0.373 ratio
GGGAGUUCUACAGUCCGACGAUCUCCCAGCACUUCGAUAAAAAGUGUGGACUGGUUGCUUGUAUUUUCCUUAUUCUUUUUAAUUAGCUUUAUUAUGUAUGCUACUAUUCGAACUGAGAGCAUUCGGUGGCUAAUUCCAGGACACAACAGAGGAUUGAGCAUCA,0.8 ratio

# Study 3
# Target: Prothrombin, mature alpha-thrombin (F2, Homo sapiens, UniProt P00734)
# Technique: aptamer microarray, sandwich
# Form: DNA with 2'F-ANA
# Sample: in vitro
# Concentration: 200 nM
# Setting: whole 15-mer aptamer, many near background
# With: Cy3 exosite-II aptamer, 400 nM
# Direction: higher = stronger binding
# Sequence: GGTTGGTGTGGTTGG
Modification,mean fluorescence intensity
2'F-ANA at 1 2 3 8 9 10 14,54 a.u.
2'F-ANA at 1 2 6 7 8 11 12 13,272 a.u.
2'F-ANA at 3 4 6 7 12 13 14 15,304 a.u.
2'F-ANA at 2 4 6 11 14,97 a.u.
2'F-ANA at 1 2 5 10 11 12 13,88.3 a.u.
2'F-ANA at 1 8 9 11 12,350 a.u.
2'F-ANA at 2 3 4 6 9 11 15,508 a.u.
2'F-ANA at 1 2 3 4 5 7 8,69.6 a.u.
2'F-ANA at 2 5 6 7 11 12,114 a.u.

# Single results of other studies
Molecule,target,test,test system,conditions,scale,endpoint,result
"PhoQ, residues 284 288 289 292 302 303 TASMAF","PhoP, residues 12 14 15 18 19 NYFTV (Escherichia coli, UniProt P23836)","Sort-seq, measured: YFP reporter",E. coli,"PhoQ-PhoP variant library, with: 10 µM Mg2+","baseline: high Mg2+ state, higher = stronger signaling",fold induction,8.55
